Results collected from several papers.
Numbered parts are unrelated; each lists some results of a single study.

Set 1 — technique: protein binding microarray; molecule type: double-stranded DNA, one strand shown; sample: in vitro; tested at: not given; baseline: not given; direction: higher = stronger binding
Target: Histone acetyltransferase KAT6A, winged helix 2, GST fusion (KAT6A, Homo sapiens, UniProt Q92794, residues 85-181)
Setting: 8-mer, flanks averaged, mean of 2 arrays, mostly near background
Target sequence (chain): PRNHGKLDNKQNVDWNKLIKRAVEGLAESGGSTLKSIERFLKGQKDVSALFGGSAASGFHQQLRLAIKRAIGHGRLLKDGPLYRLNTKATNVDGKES
Oligonucleotide	E-score
AACATACT	-0.242
AGTAGCCA	-0.16
TACTAGGA	0.00583
CGGTCCTA	-0.132
GAATAATC	0.143
GACAATAC	0.0676
AGTGCTGC	-0.0759
CAGCATAA	0.0239
AGATCTAC	0.0186
AGCGGAGA	0.098
CCGACCGG	0.175
CCTAGGAG	0.0274
CAAGTGGA	-0.0789
ACAGTGTC	-0.149
ATTAACAA	0.099
GTCTTCGA	0.13
AAATTCTG	-0.0328
CCGGCAAA	0.169

Set 2 — technique: RNA Bind-n-Seq; molecule type: RNA; sample: in vitro; tested at: 20 nM; setting: 6-mer, flanks averaged, single round; with: 150 mM KCl; baseline: input library; direction: higher = stronger binding
Target: TAR DNA-binding protein 43, full length, His tag (TARDBP, Homo sapiens, UniProt Q13148, residues 1-414)
Oligonucleotide	6-mer enrichment (R)
GUUCAG	0.821
UGGCCG	1.36
AGGGAC	2.17
GUGGAU	1.4
GGGCAC	2.31
CGGCUC	0.793
UCAAGC	0.638
CUACGG	0.981
UAAUGA	0.686
GUGUCG	1.32
CCGAAA	0.643
GAUCGG	1.47
CCUCAA	0.594
GCACCC	0.789
GAUUAG	0.823
GAUUAC	0.601
UUGUUG	0.812
UUGAGA	0.801
CAGGGC	2.21
GCCUGC	0.862

Set 3 — technique: protein-binding microarray; molecule type: double-stranded DNA, one strand shown; sample: in vitro; tested at: not given; direction: higher = stronger binding
Target: Protein C-ets-1 (ETS1, Homo sapiens, UniProt P14921, residues 1-441, full length assumed)
Chain of UniProt P14921 (whole entry, looked up): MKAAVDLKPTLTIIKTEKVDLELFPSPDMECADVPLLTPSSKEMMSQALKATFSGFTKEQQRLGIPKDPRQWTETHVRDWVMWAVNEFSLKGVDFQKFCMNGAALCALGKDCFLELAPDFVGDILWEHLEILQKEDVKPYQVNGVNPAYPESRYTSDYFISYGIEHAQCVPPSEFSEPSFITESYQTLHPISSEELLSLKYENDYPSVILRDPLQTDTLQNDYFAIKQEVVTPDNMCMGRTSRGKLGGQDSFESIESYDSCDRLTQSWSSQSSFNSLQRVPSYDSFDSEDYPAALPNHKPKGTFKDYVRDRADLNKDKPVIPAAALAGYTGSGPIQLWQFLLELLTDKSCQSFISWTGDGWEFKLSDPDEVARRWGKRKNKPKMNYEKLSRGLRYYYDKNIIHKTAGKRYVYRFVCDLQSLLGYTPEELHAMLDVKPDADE
Setting: k-mer, scored over probes, only values ≥0.25
Oligonucleotide	E-score
GCCGGAAA	0.487
TTACGGAA	0.34
GGATATAC	0.388
GGATGTAC	0.375
AGGAAGAC	0.365
ATAACCGG	0.344
CATCCTCG	0.267
AAAGGATG	0.323
CAGGAAAA	0.381
GAGTATCC	0.293
TGCAGGAA	0.397
ACTTCCGC	0.49
CGGAGGAA	0.377
CTTCCGAA	0.346
TATCCGCA	0.413
GCAACGGA	0.323
AGATTCCG	0.296
GGAAGCAA	0.385
GGAAACCA	0.408
ATGCTTCC	0.431
CCGCGGAA	0.313
AACCGGAA	0.486
GAGCATCC	0.377
ATCCTGTA	0.373

Set 4 — technique: RNA Bind-n-Seq; molecule type: RNA; sample: in vitro; tested at: 365 nM; baseline: no-protein control; direction: higher = stronger binding
Target: RNA binding protein fox-1 homolog 2, RRM domain, GST-SBP tag (RBFOX2, Homo sapiens, UniProt O43251-10, residues 100-194)
Setting: natural RNA segment, single round, ends assumed
All sequences stand within: GGGAGUUCUACAGUCCGACGAUC … UGGAAUUCUCGGGUGCCAA
Construct (chain): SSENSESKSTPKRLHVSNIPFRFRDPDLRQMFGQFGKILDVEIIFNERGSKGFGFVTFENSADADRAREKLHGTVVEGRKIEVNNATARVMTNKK
Oligonucleotide	RBNS enrichment (R)
UCUGCAGGAGCUGGUGGUGCAAAAAGGCUGGCGUUUGCCAGAGUACAUGGUGACCCAAGAGUCUGGGCCUGCUCACCGCAAAGAGUUCACCAUGACUUGCCGGGUGGAGC	0.447
GUGUGUUGCUUCUUUCUCUCCUAAAGCAAACCUCUGCCUUUUCUCUAUGCUGUUCGUGUUGGGUUUUGUUCAUGUCAGAUACGUGGUUCAUUCUCAGGACCAAGGGAAAC	0.486
UGUAAGCCAGGCAUGGAGGGCUCCUGCCCUUCUGCUGAGCCACAGCCCAUUGCAGCACUGUGCUGGCCAGACUUCAGCUGCCUUGGGAACUGAAGCCCUGCCACUGUUGC	0.349
CGUAACCCUUUCAAUUGAACUGCCUGGAUUUUAUAUAAAGUUACUAAACGAUACCUUGUUCUUGGAACUGCAUGCUGCCAAGUGCCAUUCGUACUGAGCAUCCUCAUUUC	25.8
GAUCUUCUUCAGACAGCACUGCUGGAGUUAAGGAGUAGCUCGAGGUGAAGCUGGAUGGGGGAUCCAGUGGAGCAGGAGUUGACGGACAGUCCGUUCACAUCGCUGUGUUU	0.528
GUGAAAUCGGUUUGAUUGAGUGGGCUCUGAAAGGGGCAUUUAAUGGUCUUGUUUCUUCAUAACUCACAAUCACUGGCUACCAAGAUAACCCUGAUGUAUUGAUUCCAUAA	0.727
UAUAAAAAGCAGAUAGAUGGCGCUAUGUUUGAUUCCUACAACGAAAUUAUCACCAGCUUUUUUUCAUUCUUAACUCUUUAAAGGAUUCAAACGCAACUCAAAUCUGUGCU	1.04
CCCUGGGAAUUUCUAUCCAUUUUAAAUGCUGCCGCUUUCAUCUGUUUAGCCAGCACACCCAAUGGUUUCACUAACUAGCCCAGUUGACCUUUUUGAAGUUUGAGCCUUGA	0.475
UUAAGUAAUUGGGACUCUAGCACAUCUUGACCUAGGGUCACUAGAGCUAAGCUUGCUUUGCAGGGCAGACACCUGGGACAGCCUUCCUCCCUCAUGUUUGCUGGGACACU	1.23
CCUCCCAAAGUGUUGGGAUUACAGGCAUGAGCCACCACGCCAGCCAUUUUCUCUUUCUAAGAAGAGCAACCUCAGCCGGAGUGAGUUUUUUCUGACUUUGCAGCUGAGUC	0.195
CCCUUUUAACCAGUGCUGUGAUGGAUGAAGGCCAAUCUUGUUUCCUUUCAUCUAGUACCUGGACCAUUCUCCCUAGACCCUUGCCUUCCUCCCUGGCCAACACAUACUUG	0.606
UGUCAGCAGGCAGAGCAUUGCAGUUUAUUUAACUGAUGGCCAGGUUCUUGUUAGAACACCAAGCACACACUUGAGAUUAUUUAUUGAUCGAGGCAAAGUAAUUAGUCAUG	0.453

Set 5 — technique: universal PBM; molecule type: double-stranded DNA, one strand shown; sample: in vitro; tested at: 600 nM; direction: higher = stronger binding
Target: Sal-like protein 4, full length isoform A (SALL4, Homo sapiens, UniProt Q9UJQ4, residues 1-1053)
Chain of UniProt Q9UJQ4 (whole entry, looked up): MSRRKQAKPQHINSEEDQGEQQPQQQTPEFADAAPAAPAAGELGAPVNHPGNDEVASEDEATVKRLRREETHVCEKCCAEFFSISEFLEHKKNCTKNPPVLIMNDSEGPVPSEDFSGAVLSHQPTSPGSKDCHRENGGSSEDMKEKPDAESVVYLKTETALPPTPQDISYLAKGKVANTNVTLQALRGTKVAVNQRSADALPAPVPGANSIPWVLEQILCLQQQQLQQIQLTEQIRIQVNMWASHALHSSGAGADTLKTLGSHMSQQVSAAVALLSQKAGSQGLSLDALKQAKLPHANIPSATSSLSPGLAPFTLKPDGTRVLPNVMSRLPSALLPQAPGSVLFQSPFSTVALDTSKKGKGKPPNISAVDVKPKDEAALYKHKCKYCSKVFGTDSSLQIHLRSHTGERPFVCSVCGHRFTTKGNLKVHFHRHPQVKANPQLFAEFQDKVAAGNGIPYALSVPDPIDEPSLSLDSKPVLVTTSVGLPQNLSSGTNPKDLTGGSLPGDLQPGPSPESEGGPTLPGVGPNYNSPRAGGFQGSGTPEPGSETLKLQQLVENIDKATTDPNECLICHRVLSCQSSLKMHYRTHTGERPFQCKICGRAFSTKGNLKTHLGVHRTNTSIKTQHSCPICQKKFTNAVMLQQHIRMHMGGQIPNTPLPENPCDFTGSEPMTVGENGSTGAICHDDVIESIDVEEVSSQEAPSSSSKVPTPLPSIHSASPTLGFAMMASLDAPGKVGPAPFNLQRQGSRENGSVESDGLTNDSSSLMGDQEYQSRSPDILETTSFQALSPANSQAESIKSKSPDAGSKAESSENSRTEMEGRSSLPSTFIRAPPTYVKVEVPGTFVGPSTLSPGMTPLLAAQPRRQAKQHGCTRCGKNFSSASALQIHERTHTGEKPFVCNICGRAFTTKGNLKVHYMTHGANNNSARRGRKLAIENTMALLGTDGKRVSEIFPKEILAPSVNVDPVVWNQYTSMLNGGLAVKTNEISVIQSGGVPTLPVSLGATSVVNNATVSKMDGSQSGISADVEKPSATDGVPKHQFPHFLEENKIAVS
Setting: 8-mer, flanks averaged, mean of replicates
Oligonucleotide	E-score
CGAACGGC	-0.206
AACCACTA	0.147
CATGTGGA	-0.0592
CCGGGCAG	-0.417
GGTTAAAA	0.144
GAAAGAAA	0.229
AACGCTAT	0.125
AGAGCGCT	-0.149
AATCTATG	0.224
AATTAACA	0.306
AGTCATAG	0.168
AGCCCGTA	-0.134
TCAATTGA	0.238
GAAGATAC	0.104
CAACAAGC	0.0139
TCTCAGCA	-0.114
ACGCGTAC	-0.0686
GACTGTGC	-0.0991
AGACCCAG	-0.329
ATCCCCAC	-0.136
